Measured values of several laboratories.
Lines come from different studies, so protocols differ. Numbers after ± are the reported error.
B1: enzyme (Vitis vinifera, UniProt D7T1P6); chain MEMESASHEKAGLLTRLWTCLKPLPGKLVSKVAEVARKIKKLGQDDPRRVIHSLKVGLALTLISLFYYSRALYKGFGDSAMWAVMTVVVVLEFSVGATLGKGLNRGLATLLAGALGVGVHHLASLSGGIGEPMLLGFFVFLQAAASTFARFFPGIKARYDYGCLIFILTFCLVSVAGYRDREILELAHKRISTILIGGATCVIITIVVCPVWAGEDLQNLVALNLEKIGNYLEGFGGEYFRTSEDEECKDDKSFLQGYISVLNSKGSEESLENFARWEPGHGRFRFRHPWKQYLKIGTLTRQCAYRIEALNGYLNSGFQAPTEIRSKIKDVCTMMSLESGMALNELALAVKKMTRPTSADPHIEKSETAAKTLKTLLKSGIWEDTDFLEVIKVATVASLLIDVTNCTQKIAESVHELASIAHFKSVDPTVSPEKSQLSQVKLAAKVDCPQVSITVRESSPSSKESGNSLAPTAVPRVVL
B2: enzyme T113A (Streptomyces parvus, UniProt A0A7K3RVR3); chain MYVPEQYRPRDASWTLELIRSNPLALLVTNGPQHPWATHVPVLFAEEPDGPEGPDGLDATGDDLVGRRLLGHLNLMNPHWEALAGAGHALLVFQGPGSYVSPTVYETAPAAPAWDFTSVHVHGALRLIDDPDDLRKIVQATVRAYEREVGTDWDMSESLEYFERLLPGVRGFEIKIESVDSMFKLSQEQLPETVTKVIDSFRRSDGGRRQELATMIERAASD
B3: enzyme E188A (Streptomyces parvus, UniProt A0A7K3RVR3); chain MYVPEQYRPRDASWTLELIRSNPLALLVTNGPQHPWATHVPVLFAEEPDGPEGPDGLDATGDDLVGRRLLGHLNLMNPHWEALAGAGHALLVFQGPGSYVSPTVYETAPAAPTWDFTSVHVHGALRLIDDPDDLRKIVQATVRAYEREVGTDWDMSESLEYFERLLPGVRGFEIKIESVDSMFKLSQAQLPETVTKVIDSFRRSDGGRRQELATMIERAASD

| Substance | target or system | assay | system | conditions | scale | endpoint | result |
| --- | --- | --- | --- | --- | --- | --- | --- |
| CC(C)C[C@@H]1NC(=O)[C@H](CC(=O)O)NC(=O)CNC(=O)[C@H](CCCNC(=N)N)NC(=O)[C@H](Cc2ccccc2)NC(=O)[C@H](CCCCNC(=O)CCc2cn(CCCNC(=O)CN3CCN(CC(=O)O)CCN(CC(=O)O)CCN(CC(=O)O)CC3)nn2)N(C)C(=O)[C@H]2CCCN2C(=O)[C@H](Cc2ccccc2)NC(=O)[C@H](C)NC1=O |  |  | female CB17 SCID mice, tumour and blood | intravenous, dose not given, 90 min, 177Lu-labelled | reference: tumour over blood | tissue-to-tissue ratio | 4.4 ± 2.8 |
| O=C(O)CC[C@H](NC(=O)N[C@@H](CCCCNC(=O)[C@H](Cc1ccc2ccccc2c1)NC(=O)[C@H]1CC[C@H](CNC(=O)CN2CCN(CC(=O)O)CCN(C(CCC(=O)NCCC[P+](c3ccccc3)(c3ccccc3)c3ccccc3)C(=O)O)CCN(CC(=O)O)CC2)CC1)C(=O)O)C(=O)O (stereo partly shown) [terbium-161 labelled] |  |  |  | pH 7.4 |  | logD | -2.35 ± 0.02 |
| CC(C)C[C@@H]1NC(=O)[C@H](CC(=O)O)NC(=O)CNC(=O)[C@H](CCCNC(=N)N)NC(=O)[C@H](Cc2ccccc2)NC(=O)[C@H](CCCCNC(=O)CCc2cn(CCCNC(=O)CCC(C(=O)O)N3CCN(CC(=O)O)CCN(CC(=O)O)CCN(CC(=O)O)CC3)nn2)N(C)C(=O)[C@H]2CCCN2C(=O)[C@H](Cc2ccccc2)NC(=O)[C@H](C)NC1=O (stereo partly shown) |  |  | female CB17 SCID mice, tumour and heart | intravenous, dose not given, 90 min, 177Lu-labelled | reference: tumour over heart | tissue-to-tissue ratio | 10.5 ± 2.6 |
| C[C@@H](O)[C@@H]1NC(=O)[C@@H](NC(=O)CCOCCOCCOCCOCCNC(=O)c2ccc(NN)nc2)CSSC[C@@H](C(=O)O)NC(=O)[C@H](Cc2c[nH]cn2)NC(=O)[C@H](CO)NC(=O)[C@H](Cc2ccccc2)NC(=O)[C@@H]2CCCN2C(=O)[C@H](CO)NC(=O)[C@@H]2CCCN2C1=O [technetium-99m labelled] |  |  | mouse HCT-116 xenograft, skin | intravenous, 37 MBq, postmortem after imaging |  | tissue uptake | 0.09 ± 0.01 %ID/g |
| B1 (enzyme) | O=[N+]([O-])O | steady-state kinetics |  | pH 5.5, not purified |  | Km | 66700 µM |
| CN[C@H](CC(C)C)C(=O)N[C@H]1C(=O)N[C@@H](CC(N)=O)C(=O)N[C@H]2C(=O)N[C@H]3C(=O)N[C@H](C(=O)N[C@H](C(=O)NCc4cn(CC(=O)N[C@H](C(=O)N[C@@H](CCN)C(=O)N[C@H]5CCNC(=O)[C@H]([C@@H](C)O)NC(=O)[C@H](CCN)NC(=O)[C@H](CCN)NC(=O)[C@H](CC(C)C)NC(=O)[C@@H](CC(C)C)NC(=O)[C@H](CCN)NC5=O)[C@@H](C)O)nn4)c4cc(O)cc(O)c4-c4cc3ccc4O)[C@H](O)c3ccc(c(Cl)c3)Oc3cc2cc(c3O[C@@H]2O[C@H](CO)[C@@H](O)[C@H](O)[C@H]2O[C@H]2C[C@](C)(N)[C@H](O)[C@H](C)O2)Oc2ccc(cc2Cl)[C@H]1O | sheep erythrocytes |  |  | 512 µg/mL, 37 °C | reference: Triton X-100 | hemolysis | < 5% |
| B2 (enzyme T113A) | N[C@@H](CCCNO)C(=O)O | steady-state kinetics |  | pH 8, 25 °C, with: heme |  | Km | 1710 µM |
| N=C(N)NCCC[C@@H]1NC(=O)[C@H](CCCCNC(=O)CCC(NC(=S)Nc2ccc(CC3CN(CC(=O)O)CCN(CC(=O)O)CCN(CC(=O)O)CCN3CC(=O)O)cc2)C(=O)NCCCC[C@@H]2NC(=O)[C@@H](Cc3ccc(O)cc3)NC(=O)[C@H](CC(=O)O)NC(=O)CNC(=O)[C@H](CCCNC(=N)N)NC2=O)NC(=O)[C@@H](Cc2ccc(O)cc2)NC(=O)[C@H](CC(=O)O)NC(=O)CNC1=O (stereo partly shown) [scandium-44 labelled] |  | ex vivo γ-counting | female athymic nude mice, U-87 MG xenograft, muscle | intravenous, 4 h, with: cRGD 50 mg/kg blocking |  | tissue uptake | 0.023 ± 0.003 %ID/g |
| B3 (enzyme E188A) | N[C@@H](CCCNO)C(=O)O | steady-state kinetics |  | pH 8, 25 °C, with: heme |  | Km | 1660 µM |
| CC[C@H](C)[C@H](NC(=O)[C@H](CO)NC(=O)[C@H](Cc1ccc(O)cc1)NC(=O)[C@H](Cc1ccc(O)cc1)NC(=O)[C@H](CC(N)=O)NC(=O)CNC(=O)[C@H](CO)NC(=O)[C@H](Cc1ccc(O)cc1)NC(=O)[C@H](CO)NC(=O)[C@H](CO)NC(=O)[C@H](CC(N)=O)NC(=O)COCCOCCNC(=O)CN1CCN(CC(=O)O)CCN(CC(=O)O)CCN(CC(=O)O)CC1)C(=O)N[C@@H](CC(C)C)C(N)=O [copper-64 labelled] |  | dynamic PET | tamoxifen-induced PDAC mouse model, metastases | 6.5 min, CLDN4-expressing tumours |  | maximum metastasis uptake | 26.6 %IA/cc |

Repeated from above:
| Substance | target or system | assay | system | conditions | scale | endpoint | result |
| --- | --- | --- | --- | --- | --- | --- | --- |
| B2 (enzyme T113A) | N[C@@H](CCCNO)C(=O)O | steady-state kinetics |  | pH 8, 25 °C, with: heme |  | Km | 1710 µM |
